Assay results collected from several papers.
Parts stem from different laboratories: compare values within a part only. Substitutions count along the parent as printed.

Series 1
Target: Interferon regulatory factor 3, full length, phosphomimetic (IRF3, Homo sapiens, UniProt Q14653, residues 1-427, S386D/S396D/S398D/S402D/T404D/S405D)
Technique: protein-binding microarray
Form: double-stranded DNA, one strand shown
Medium: in vitro
Concentration: 2540 nM top
Setting: 60-bp whole probe
Added: salmon DNA 0.4 mg/ml
Reference: random background probes
Direction: higher = stronger binding
All sequences stand within: GCCTAGCAC … GTCTTGATTCGCTTGACGCTGCTG
Target sequence (chain): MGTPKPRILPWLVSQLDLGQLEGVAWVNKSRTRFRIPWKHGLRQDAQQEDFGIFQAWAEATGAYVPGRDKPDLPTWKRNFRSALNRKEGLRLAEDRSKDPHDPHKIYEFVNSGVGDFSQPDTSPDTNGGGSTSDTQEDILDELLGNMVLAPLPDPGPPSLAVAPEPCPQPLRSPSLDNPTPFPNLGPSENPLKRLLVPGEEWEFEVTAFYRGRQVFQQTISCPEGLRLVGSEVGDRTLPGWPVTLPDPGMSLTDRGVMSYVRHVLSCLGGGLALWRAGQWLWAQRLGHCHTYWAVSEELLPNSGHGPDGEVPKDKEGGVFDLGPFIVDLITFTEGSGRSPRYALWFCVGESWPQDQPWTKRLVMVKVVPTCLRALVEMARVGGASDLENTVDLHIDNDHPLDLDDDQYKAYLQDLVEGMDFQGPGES
Under “fitted relative affinity”, `TCTGTTTTTGCTTTCTTTATGTGCTAG` is recorded as 2.38 z-score.
`GACGGACTGGACTTTCGGGTCGTGCTA`: “fitted relative affinity” 0.227 z-score.
`TCCTGTATGGATGTGTTTTAGTGCTAG`: “fitted relative affinity” -0.11 z-score.
Under “fitted relative affinity”, `GTAGGACTGGGTATCGGTTAGTGCTAG` is recorded as 0.186 z-score.
`GACGGTATTGGTTTCGGGACGTGCTAG` — result for “fitted relative affinity”: 3.86 z-score.
`TTAGATTTCAGTTTTGATTAGTGCTAG`: “fitted relative affinity” 3.39 z-score.
For `GAGGGTATCGACACTGGGGACGTGCTA`, “fitted relative affinity” read -0.592 z-score.
For `TGAGATCTCAGACTGGATTAGTGCTAG`, “fitted relative affinity” read -0.335 z-score.
Under “fitted relative affinity”, `GACGGTTTCGGGATCGGGACGTGCTAG` is recorded as 4.99 z-score.
Under “fitted relative affinity”, `TCACCTCTCTGTCCCCCTTTGTGCTAG` is recorded as 0.955 z-score.
`GACGGACGGGGGTTTCGGGACGTGCTA` — result for “fitted relative affinity”: 0.935 z-score.
For `CTTGCTCTGTGCATAGGTCTGTGCTAG`, “fitted relative affinity” read 0.0421 z-score.
Under “fitted relative affinity”, `TTAGATTTCGGTCTCGATTAGTGCTAG` is recorded as 4.62 z-score.
Under “fitted relative affinity”, `TTAGGTTTCGGGTATCAGTTAGTGCTA` is recorded as 4.54 z-score.
For `GTAGGTCTCCTTCTCCTTTAGTGCTAG`, “fitted relative affinity” read 4.28 z-score.
Under “fitted relative affinity”, `GACGATTTCAGTCTCGAAACGTGCTAG` is recorded as 2.63 z-score.
`TAAGGTTTCGGTCTCGGTTAGTGCTAG`: “fitted relative affinity” 8.61 z-score.
Under “fitted relative affinity”, `GACGGTATCGGGTATCGTGACGTGCTA` is recorded as 1.6 z-score.
`TTAGATATCGGGTATCGAATAGTGCTA` — result for “fitted relative affinity”: 0.348 z-score.

Series 2
Target: ABI1, truncated, D143A, DHFR fusion (Arabidopsis thaliana)
Technique: DHFR PCA, deep sequencing
Medium: yeast
Setting: methotrexate growth selection, single substitutions
Added: (+)-ABA 17 µM
Reference: wild-type fitted maximum
Direction: higher = stronger binding
Starting sequence: PYL1, truncated, DHFR fusion (Arabidopsis thaliana); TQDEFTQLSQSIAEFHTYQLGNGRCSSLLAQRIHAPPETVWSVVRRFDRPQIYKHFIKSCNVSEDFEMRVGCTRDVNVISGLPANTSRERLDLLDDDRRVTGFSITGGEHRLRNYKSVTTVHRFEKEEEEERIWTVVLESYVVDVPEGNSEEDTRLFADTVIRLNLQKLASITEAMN; partner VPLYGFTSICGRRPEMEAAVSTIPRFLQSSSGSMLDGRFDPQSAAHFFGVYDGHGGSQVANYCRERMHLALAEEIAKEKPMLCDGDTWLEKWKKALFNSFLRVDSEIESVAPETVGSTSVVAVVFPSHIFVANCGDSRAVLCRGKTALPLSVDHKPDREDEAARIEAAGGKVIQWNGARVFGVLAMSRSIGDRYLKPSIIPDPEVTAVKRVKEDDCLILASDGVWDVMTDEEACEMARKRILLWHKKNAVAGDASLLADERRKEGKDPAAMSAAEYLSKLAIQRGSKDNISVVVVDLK
`H55S`: “relative binding score” 93.3%.
Under “relative binding score”, `I52F` is recorded as 73%.
`V136G`: “relative binding score” 2.08%.
`D92S` — result for “relative binding score”: 14.8%.
For `K54D`, “relative binding score” read -6%.
Under “relative binding score”, `T106G` is recorded as -8.18%.
`E14D` — result for “relative binding score”: 68.1%.
For `S9R`, “relative binding score” read 85.4%.
Under “relative binding score”, `R24Y` is recorded as 45.9%.
`R24P`: “relative binding score” 12%.
Under “relative binding score”, `E152L` is recorded as 70.5%.
Under “relative binding score”, `S27C` is recorded as 32.1%.
Under “relative binding score”, `T106C` is recorded as 77.6%.
`L166F`: “relative binding score” 11.1%.
`Y18H`: “relative binding score” 86.2%.
`R46M`: “relative binding score” 71.8%.
Under “relative binding score”, `E109S` is recorded as 81.8%.
Under “relative binding score”, `I172M` is recorded as 65.4%.
For `T73F`, “relative binding score” read 87.6%.
For `L8A`, “relative binding score” read 32%.
`A175F` — result for “relative binding score”: 70%.
For `V40I`, “relative binding score” read 44.9%.
For `T6H`, “relative binding score” read 88.5%.
`K116I` — result for “relative binding score”: -0.442%.
`L91W` — result for “relative binding score”: -6.97%.

Series 3
Target: Fragile X messenger ribonucleoprotein 1, C-terminal low-complexity region (Fmr1, Mus musculus, UniProt P35922)
Technique: RNA Bind-n-Seq
Form: RNA
Medium: in vitro
Concentration: 200 nM
Setting: whole 134-nt RNA, ends assumed
Added: 150 mM KCl
Reference: input library
Direction: higher = stronger binding
All sequences stand within: GGGAGUUCUACAGUCCGACGAUC … UGGAAUUCUCGGGUGUCAAGG
`CCUCAAGUCCUGUGCUACACAUCGUAUGUACCGAAUCGGGGUGGGUGGGUGGAAAGUAUUAUGUUACGCCGUUCGGAUCUGCACUUCCAG` has a log2 enrichment of 1.47.
`AAGUCCUGUGCUACACAUCGUAUGUACCGAAUCGGUUUGGAAAAAGGUUUUUUUGGAAAGUAUUAUGUUACGCCGUUCGGAUCUGCACUU` has a log2 enrichment of -0.993.
`CACAGACAACACGCACACACACAGACACAGAGGGAAGGGGUUGGGAUGGGGACAGGGUGCACAGCAGGGCGGGGUAGGACCCCAGCCCCU` gave a log2 enrichment of 1.29.
`UAACUUUAGAGGAGGAUCUGAUGGAUAUGGCAGUGGACGUGGAUUUGGGGAUGGCUAUAAUGGGGAUGGAGGAGGACCUGGAGGUGGCAA` gave a log2 enrichment of 0.348.
The log2 enrichment of `CUGUGCUACACAUCGUAUGUACCGAAUCGGGUUUUUUUGGUUUUUUUGGGGUUUUUUUGGGAAAGUAUUAUGUUACGCCGUUCGGAUCUG` is reported as -0.866.
With `UCCUCAAGUCCUGUGCUACACAUCGUAUGUACCGAAUCGGUUUGGUGGAGGAAAGUAUUAUGUUACGCCGUUCGGAUCUGCACUUCCAGC` the log2 enrichment was -0.409.
The log2 enrichment of `UGGCCCUGGUGGCAUGCGGGGAGGAAGAGGUGGCCUCAUGGAUCGUGGUGGUCCCGGUGGAAUGUUCAGAGGUGGCCGUGGUGGAGACAG` is reported as -0.237.
`AGUCCUGUGCUACACAUCGUAUGUACCGAAUCAAACCCCCAAAUUUAAACCCCCAAAAAAGUAUUAUGUUACGCCGUUCGGAUCUGCACU` gave a log2 enrichment of -0.247.
With `GCAGGAAGUAAAAACAAAUGGAAAUGCUUCGGAUAGUGGCAGGGGUUGGGGUUGCUAAGGAAAGGGUGGGAUGGGAGUGGGUAAAGAGUU` the log2 enrichment was 0.0567.

Series 4
Target: CCNF, cyclin fold, Cln2 fusion (human)
Technique: yeast growth competition, sequencing
Medium: yeast
Setting: strong parent motif
Reference: not given
Direction: higher = stronger binding
Starting sequence: CDKN1B docking peptide (human); PSACRNLFGPVDH; partner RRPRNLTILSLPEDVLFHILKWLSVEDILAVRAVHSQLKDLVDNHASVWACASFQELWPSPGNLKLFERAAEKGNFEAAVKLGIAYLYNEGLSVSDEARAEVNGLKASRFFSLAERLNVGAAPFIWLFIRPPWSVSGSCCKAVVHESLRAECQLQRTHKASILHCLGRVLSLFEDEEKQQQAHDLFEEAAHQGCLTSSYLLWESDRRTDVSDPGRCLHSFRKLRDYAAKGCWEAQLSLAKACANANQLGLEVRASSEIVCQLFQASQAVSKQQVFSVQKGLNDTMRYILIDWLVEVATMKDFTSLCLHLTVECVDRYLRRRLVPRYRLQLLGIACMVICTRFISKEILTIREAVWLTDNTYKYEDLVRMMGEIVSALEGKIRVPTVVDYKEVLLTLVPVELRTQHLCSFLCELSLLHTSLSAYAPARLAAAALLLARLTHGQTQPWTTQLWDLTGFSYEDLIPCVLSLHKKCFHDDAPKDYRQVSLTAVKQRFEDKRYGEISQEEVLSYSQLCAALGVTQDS
`D12C`: “normalised enrichment score” 7.89.
For `P10K`, “normalised enrichment score” read 6.95.
`P1V` — result for “normalised enrichment score”: 7.08.
For `P1M`, “normalised enrichment score” read 8.69.
For `V11K`, “normalised enrichment score” read 5.89.
For `L7M`, “normalised enrichment score” read 0.636.
`A3V` — result for “normalised enrichment score”: 8.1.
For `A3C`, “normalised enrichment score” read 6.82.
For `V11I`, “normalised enrichment score” read 7.4.
Under “normalised enrichment score”, `F8Y` is recorded as 1.71.
Under “normalised enrichment score”, `S2I` is recorded as 6.07.
`S2P` — result for “normalised enrichment score”: 7.17.
`A3I` — result for “normalised enrichment score”: 8.29.
`V11R`: “normalised enrichment score” 7.95.
For `A3D`, “normalised enrichment score” read -0.0686.
Under “normalised enrichment score”, `R5Q` is recorded as 0.236.
`F8L`: “normalised enrichment score” 0.989.
`R5K F8L`: “normalised enrichment score” 0.133.
Under “normalised enrichment score”, `P1Y` is recorded as 7.58.
Under “normalised enrichment score”, `P10T` is recorded as 6.47.
`D12Q` — result for “normalised enrichment score”: 6.77.
Under “normalised enrichment score”, `R5M` is recorded as -0.183.
`F8R`: “normalised enrichment score” 0.959.
`V11L`: “normalised enrichment score” 7.33.
For `C4E`, “normalised enrichment score” read 0.682.

Repeated from above (series 2):
`V136G`: “relative binding score” 2.08%.
`D92S` — result for “relative binding score”: 14.8%.
For `K54D`, “relative binding score” read -6%.
Under “relative binding score”, `T106G` is recorded as -8.18%.
`E14D` — result for “relative binding score”: 68.1%.
